Assay results gathered from unrelated publications.
Numbered parts are unrelated; each lists some results of a single study.

Amino acid sequences for entries named in this document (tags omitted).
UniProt Q05397, whole entry: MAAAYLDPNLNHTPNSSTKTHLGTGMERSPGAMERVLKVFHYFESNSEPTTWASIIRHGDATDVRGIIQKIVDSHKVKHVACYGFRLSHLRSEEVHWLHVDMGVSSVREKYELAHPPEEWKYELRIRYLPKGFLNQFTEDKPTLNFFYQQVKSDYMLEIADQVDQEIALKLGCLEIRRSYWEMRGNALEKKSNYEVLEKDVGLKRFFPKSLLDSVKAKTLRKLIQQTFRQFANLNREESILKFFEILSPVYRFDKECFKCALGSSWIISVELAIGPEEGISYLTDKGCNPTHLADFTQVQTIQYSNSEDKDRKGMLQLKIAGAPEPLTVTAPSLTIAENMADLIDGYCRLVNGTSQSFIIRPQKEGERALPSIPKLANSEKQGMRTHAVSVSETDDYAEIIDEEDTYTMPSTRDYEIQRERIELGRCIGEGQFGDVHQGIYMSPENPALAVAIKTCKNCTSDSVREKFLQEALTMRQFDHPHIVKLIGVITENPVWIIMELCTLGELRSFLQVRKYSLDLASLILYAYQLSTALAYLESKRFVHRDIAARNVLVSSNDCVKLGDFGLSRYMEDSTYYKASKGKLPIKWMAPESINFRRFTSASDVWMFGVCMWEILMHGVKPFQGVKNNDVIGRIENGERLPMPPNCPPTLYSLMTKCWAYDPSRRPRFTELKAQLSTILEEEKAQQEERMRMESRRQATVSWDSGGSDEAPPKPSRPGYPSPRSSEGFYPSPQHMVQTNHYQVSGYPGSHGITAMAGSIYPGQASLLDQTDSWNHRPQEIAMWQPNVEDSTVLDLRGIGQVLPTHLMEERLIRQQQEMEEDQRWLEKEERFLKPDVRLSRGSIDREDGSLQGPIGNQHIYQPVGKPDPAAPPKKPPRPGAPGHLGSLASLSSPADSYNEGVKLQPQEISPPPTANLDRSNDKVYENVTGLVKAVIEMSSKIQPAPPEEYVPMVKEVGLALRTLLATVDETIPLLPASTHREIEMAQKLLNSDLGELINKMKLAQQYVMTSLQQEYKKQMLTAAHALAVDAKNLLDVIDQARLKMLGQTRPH
UniProt Q00536, whole entry: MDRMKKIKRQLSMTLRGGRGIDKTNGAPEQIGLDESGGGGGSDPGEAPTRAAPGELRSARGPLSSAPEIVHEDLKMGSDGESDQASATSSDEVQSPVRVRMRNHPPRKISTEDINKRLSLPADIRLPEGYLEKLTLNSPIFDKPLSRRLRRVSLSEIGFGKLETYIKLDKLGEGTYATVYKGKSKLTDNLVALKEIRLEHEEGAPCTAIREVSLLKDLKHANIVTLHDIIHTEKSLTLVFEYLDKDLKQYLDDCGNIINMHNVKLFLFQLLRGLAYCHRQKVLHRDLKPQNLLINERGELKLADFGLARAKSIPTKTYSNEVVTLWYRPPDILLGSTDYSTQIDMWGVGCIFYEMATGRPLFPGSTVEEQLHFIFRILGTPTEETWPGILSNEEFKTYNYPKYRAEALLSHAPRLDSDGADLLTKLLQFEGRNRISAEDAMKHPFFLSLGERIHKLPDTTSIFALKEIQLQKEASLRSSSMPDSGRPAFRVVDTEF
UniProt P48730, whole entry: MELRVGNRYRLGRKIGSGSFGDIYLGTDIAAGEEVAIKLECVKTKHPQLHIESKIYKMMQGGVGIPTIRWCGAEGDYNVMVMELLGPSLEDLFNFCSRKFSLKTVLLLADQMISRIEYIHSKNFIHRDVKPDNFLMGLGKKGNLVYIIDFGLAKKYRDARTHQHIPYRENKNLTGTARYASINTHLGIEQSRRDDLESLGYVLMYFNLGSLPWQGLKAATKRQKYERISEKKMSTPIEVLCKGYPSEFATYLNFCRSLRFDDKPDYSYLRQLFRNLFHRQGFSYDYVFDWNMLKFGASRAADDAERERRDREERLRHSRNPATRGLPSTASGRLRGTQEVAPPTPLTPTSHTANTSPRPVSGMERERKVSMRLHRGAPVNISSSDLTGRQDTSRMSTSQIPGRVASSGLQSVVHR
UniProt P54764, whole entry, looked up: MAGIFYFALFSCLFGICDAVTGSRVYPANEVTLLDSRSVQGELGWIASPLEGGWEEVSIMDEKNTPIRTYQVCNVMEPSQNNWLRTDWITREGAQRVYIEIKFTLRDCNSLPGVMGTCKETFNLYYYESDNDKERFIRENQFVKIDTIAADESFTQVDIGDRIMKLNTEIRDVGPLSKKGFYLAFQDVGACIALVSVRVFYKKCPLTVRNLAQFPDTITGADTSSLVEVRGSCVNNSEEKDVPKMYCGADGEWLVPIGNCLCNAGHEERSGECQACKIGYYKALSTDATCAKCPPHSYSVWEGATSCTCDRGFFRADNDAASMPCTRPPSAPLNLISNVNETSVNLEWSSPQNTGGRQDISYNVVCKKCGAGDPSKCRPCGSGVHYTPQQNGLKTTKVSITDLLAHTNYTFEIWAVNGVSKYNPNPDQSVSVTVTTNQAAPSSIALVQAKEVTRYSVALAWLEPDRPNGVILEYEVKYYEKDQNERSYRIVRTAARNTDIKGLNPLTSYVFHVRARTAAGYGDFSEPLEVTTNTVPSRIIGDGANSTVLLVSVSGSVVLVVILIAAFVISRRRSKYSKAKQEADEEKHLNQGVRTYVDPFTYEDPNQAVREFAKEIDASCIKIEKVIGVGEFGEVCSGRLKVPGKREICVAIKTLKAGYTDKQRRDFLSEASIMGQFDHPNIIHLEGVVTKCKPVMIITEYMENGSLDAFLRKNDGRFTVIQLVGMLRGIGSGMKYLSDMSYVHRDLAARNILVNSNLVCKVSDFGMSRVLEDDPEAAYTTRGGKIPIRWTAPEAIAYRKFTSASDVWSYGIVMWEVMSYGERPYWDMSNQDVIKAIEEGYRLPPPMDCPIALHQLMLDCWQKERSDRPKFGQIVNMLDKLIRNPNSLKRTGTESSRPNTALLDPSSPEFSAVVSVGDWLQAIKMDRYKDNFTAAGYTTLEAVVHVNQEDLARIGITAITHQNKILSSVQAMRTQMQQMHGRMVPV
UniProt P04150, whole entry: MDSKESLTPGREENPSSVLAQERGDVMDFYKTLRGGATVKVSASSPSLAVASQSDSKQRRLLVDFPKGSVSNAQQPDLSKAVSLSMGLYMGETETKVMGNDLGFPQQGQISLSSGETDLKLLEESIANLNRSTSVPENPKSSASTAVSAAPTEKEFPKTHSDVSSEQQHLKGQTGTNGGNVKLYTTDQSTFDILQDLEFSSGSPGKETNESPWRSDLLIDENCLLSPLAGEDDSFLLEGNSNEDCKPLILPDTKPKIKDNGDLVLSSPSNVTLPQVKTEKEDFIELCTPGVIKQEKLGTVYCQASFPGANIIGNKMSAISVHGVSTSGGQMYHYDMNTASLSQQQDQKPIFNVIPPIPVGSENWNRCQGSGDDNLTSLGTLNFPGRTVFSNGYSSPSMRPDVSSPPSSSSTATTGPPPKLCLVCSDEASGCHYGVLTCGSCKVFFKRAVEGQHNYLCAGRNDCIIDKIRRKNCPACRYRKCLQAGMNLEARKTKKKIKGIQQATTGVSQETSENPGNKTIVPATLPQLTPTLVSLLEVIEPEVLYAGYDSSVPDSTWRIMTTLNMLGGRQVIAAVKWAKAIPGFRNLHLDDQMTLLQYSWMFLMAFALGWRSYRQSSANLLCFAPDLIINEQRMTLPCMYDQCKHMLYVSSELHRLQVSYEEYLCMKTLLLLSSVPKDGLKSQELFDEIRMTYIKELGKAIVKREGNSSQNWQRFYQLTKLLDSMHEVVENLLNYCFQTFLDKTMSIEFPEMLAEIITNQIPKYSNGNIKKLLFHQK
UniProt P23469, whole entry, looked up: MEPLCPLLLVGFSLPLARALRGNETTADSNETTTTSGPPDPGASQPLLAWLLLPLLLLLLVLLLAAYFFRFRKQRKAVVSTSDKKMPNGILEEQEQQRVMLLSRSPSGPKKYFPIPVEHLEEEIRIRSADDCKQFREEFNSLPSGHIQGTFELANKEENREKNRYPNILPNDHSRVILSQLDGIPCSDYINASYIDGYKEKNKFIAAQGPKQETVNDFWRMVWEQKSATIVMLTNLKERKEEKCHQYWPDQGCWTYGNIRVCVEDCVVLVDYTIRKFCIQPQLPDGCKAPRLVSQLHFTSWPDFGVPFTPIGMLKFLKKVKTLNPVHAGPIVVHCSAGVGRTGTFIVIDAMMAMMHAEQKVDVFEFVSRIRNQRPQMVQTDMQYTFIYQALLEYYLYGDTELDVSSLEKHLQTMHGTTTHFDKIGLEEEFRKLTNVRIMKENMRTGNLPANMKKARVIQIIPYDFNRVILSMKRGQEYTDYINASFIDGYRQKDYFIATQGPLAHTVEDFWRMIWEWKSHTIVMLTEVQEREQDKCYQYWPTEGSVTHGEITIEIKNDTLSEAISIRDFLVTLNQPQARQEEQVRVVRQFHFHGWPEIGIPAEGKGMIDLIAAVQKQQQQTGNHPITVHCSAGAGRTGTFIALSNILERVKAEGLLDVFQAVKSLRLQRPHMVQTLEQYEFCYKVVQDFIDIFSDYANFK

Block 1
SMILES: CCN1CCN(Cc2ccc(NC(=O)c3ccc(C)c(/C=C/c4cnc5[nH]ccc5c4OC)c3)cc2C(F)(F)F)CC1
Action: inhibitor
Technique: cell-based kinome screen
Tested at: 5 µM
Endpoint: log2 fold change
Focal adhesion kinase 1 (PTK2, Homo sapiens, UniProt Q05397); kinase activity; reference: vehicle: 0.589
Cyclin-dependent kinase 16 (CDK16, Homo sapiens, UniProt Q00536); reference: vehicle control: 0.023
Casein kinase I isoform delta (CSNK1D, Homo sapiens, UniProt P48730); human cells; reference: vehicle: 0.659
Ephrin type-A receptor 4 (EPHA4, Homo sapiens, UniProt P54764); human cells; reference: untreated: 0.311

Further values, each from its own experiment
NR3C1: Glucocorticoid receptor (NR3C1, Homo sapiens, UniProt P04150)
COc1ccc2c(c1)CN([C@H](C)[C@@H]1CC[C@@H]3[C@H]4CC[C@H]5C[C@@H](O)CC[C@@]5(C)[C@H]4CC[C@]31C)CO2
EC50 (NR3C1; nuclear translocation, agonist, enzyme fragment complementation): > 9 µM

COc1cc(CC(=O)NCC(NC(=O)C(CCCNC(=O)c2cccc(I)c2)NC(=O)C(Cc2ccc(C(F)(F)P(=O)(O)O)cc2)NC(=O)c2ccc(C)c(Br)c2)C(N)=O)ccc1O (centres unmarked)
inhibition (Receptor-type tyrosine-protein phosphatase epsilon (Homo sapiens, UniProt P23469); enzyme activity; 10 µM): no inhibition

CC#C/C(=N\OC[C@H]1COCCN1)c1ccc2ncnc(Nc3ccc(OCc4cccc(F)c4)c(Cl)c3)c2c1
inhibition (Cyclin-dependent kinase 2, part with cyclin A (CDK2, Homo sapiens, UniProt P24941); kinase activity; 10 µM): 21.1%

CC(C)CCC[C@@H](C)[C@@H]1CC[C@@H]2[C@H]3CC[C@H]4C[C@@H](N)CC[C@@]4(C)[C@@H]3CC[C@]21C
EC50 (NR3C1; nuclear translocation, agonist, enzyme fragment complementation): > 9 µM

For quick reference, copied from above (further values, each from its own experiment):
COc1ccc2c(c1)CN([C@H](C)[C@@H]1CC[C@@H]3[C@H]4CC[C@H]5C[C@@H](O)CC[C@@]5(C)[C@H]4CC[C@]31C)CO2
EC50 (NR3C1; nuclear translocation, agonist, enzyme fragment complementation): > 9 µM
